Assay results from different studies.
A part holds a random share of what one study measured.

Series 1
Target: RING finger protein unkempt homolog, zinc fingers 1-6, GST-SBP tag (UNK, Homo sapiens, UniProt Q9C0B0, residues 30-357)
Chain of UniProt Q9C0B0 (30-357, looked up): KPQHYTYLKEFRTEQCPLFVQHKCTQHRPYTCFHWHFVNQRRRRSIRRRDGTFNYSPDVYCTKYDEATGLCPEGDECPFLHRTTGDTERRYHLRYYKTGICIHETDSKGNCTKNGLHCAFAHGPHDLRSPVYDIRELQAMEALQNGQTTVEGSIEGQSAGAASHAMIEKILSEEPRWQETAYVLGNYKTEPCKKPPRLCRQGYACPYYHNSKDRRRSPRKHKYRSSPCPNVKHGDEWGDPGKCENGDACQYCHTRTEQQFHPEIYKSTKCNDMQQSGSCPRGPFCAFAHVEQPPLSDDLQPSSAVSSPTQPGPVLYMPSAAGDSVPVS
Method: RNA Bind-n-Seq
Form: RNA
Sample: in vitro
Concentration: not given
Setting: RNA with constant flanks, human and mouse sites, ends assumed
Reference: input RNA pool
Direction: higher = stronger binding
Endpoint: bound/input enrichment
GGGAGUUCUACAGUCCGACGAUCAUGGAGGUGAAGGUGAAGAUCCCUGAAGAAUUAAAACCGUGGCUGGUGGAGGACUGGGACUUGGUUACGAGGCAGAAGCAGUUGUUCCAGCUCCCUGCUAAAAAGAAUGUCGAUGCCAUUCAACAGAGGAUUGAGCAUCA: 0.26 ratio
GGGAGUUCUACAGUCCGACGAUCGUCCAGUCAGAACGGCCAGCUGAGGGGCCCUGUGAAGGCCAGUGCUGGCCCUGGAGGAGGGGGCACACAGCCACAGCCACAGCUGAACCAGUUGAAGAACACCAGCACAAUCAAUAAUGGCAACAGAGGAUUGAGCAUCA: 0.105 ratio
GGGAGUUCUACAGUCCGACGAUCGAAGCUAUGCGAAAUUAUUUAAAAGAACGAGGGGAUCAAACAGUGCUCAUUCUUCAUGCAAAAGUUGCACAGAAGUCUUACGGAAAUGAAAAACGAUUUUUUUGCCCUCCUCCUUGUGUGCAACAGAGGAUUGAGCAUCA: 0.745 ratio
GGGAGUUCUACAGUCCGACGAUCUCAACAUGAACCAGGCUACUGUUUAAGUACAUGUAUAUUAUAAAUUAUCUUGUGUUAUUAUCUUUUCUAAGAGAACAAAGUCCCUAUUAUUCCUAUUGCAAAGCACACAGGAAUUUAAGACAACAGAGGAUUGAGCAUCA: 0.389 ratio
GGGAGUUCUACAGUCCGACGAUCAAUGCACAUACUGACUGGUUAUUGGAUGUUUAUGCUAGGAAUAUAAAGACAUUAAAGAAGCUCCCAAGUGUUCUUAAAGAGCUGCCUGAGAAUCUAAAUGUAUGUCCUGGAGUGCAUACUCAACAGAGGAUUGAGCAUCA: 0.13 ratio
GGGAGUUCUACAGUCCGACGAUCCACUGCCUGAUGACACCUUCCGCGACCUGGGCAACCUCACACACCUCUUCCUGCACGGCAACCGCAUCUCCAGCGUGCCCGAGCGCGCCUUCCGUGGGCUGCACAGCCUCGACCGUCUCCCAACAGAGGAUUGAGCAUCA: 0.229 ratio
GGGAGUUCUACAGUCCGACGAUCGCUACUUCUGGUGAUAUUUGGCCUGGCCUUUCAGCUUAUGAUAAUAGUCCAAGGUCACCUCAUAGUCCUUCACCUAUUGCUACACCACCCAGUCAGAGUUCAUCAUGCUCAGAUGCCCCCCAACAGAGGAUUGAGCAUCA: 0.281 ratio
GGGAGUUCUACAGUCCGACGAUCACCGAUUUAUAUGACAUAAAACGUGCAGUUGUUCAUACCCAUCUUCUUAACCCUGAGUGGUUAGUGAAUUACUUUGGGUCCUUAUCAGUUGAAGAUUCCCUAGAAUGCCUCAGAGCCAUGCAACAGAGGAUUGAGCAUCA: 0.171 ratio
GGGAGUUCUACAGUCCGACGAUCGACACGUUUAUUCGAGUUCUGCAAAAAUUGAACAGUAUUCUGACUCAGCCUUGGAGGCUCCAUGUCAACAUGGGGACUACCCUUCACAGAGUUACUACUAUUUCAAUGGCUCGCUGCACACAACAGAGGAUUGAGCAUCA: 0.138 ratio
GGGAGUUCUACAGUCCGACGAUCUCUUCCUCUACAGCUACAGCUUCCACACAGACGCAGCAUUCGGGAAUGUCCCCGUCACCUAGCAACAGUUAUGAUACUUCCCCACAGCCUUGCACUACCAAUCAAAAUGGGAGGGAGAAUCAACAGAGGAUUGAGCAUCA: 0.321 ratio
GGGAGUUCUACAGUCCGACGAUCGAGGAUGAAGAUGUAAAAGAAGCCAUAAGAAGACUUCCUGAGAACCUUUAUAAUGACAGGAUGUUUCGCAUUAAGAGGGCACUGGACCUGAACUUGAAGCAUCAGAUCUUGCCUAAAGAGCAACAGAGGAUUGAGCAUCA: 0.291 ratio

Series 2
Target: PABPC1L2, full length, GST fusion (mouse, UniProt A0ABA7IW68)
Method: RNAcompete
Form: RNA
Sample: in vitro
Concentration: 20 nM
Setting: 7-mer, probes averaged, single round
Reference: mean of 7-mers
Direction: higher = stronger binding
Endpoint: 7-mer Z-score
Construct (chain): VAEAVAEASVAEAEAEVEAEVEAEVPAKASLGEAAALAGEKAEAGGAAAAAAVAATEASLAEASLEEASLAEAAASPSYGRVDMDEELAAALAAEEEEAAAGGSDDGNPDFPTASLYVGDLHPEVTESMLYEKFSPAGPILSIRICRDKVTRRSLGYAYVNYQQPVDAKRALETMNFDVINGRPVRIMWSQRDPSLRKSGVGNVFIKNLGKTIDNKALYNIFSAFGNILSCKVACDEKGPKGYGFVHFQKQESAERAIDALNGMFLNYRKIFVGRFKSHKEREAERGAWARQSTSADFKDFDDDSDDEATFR
AGAUUUA: -0.0989
GUAUCGC: -0.364
ACCACAG: -0.103
AAUGUAU: 0.1
AAUCAAG: 0.45
GUGUCUU: -0.3
UCAUACG: -0.22
UGGUGCA: 0.173
AAUAACG: 0.39
ACUGUGU: -0.0989
UACAGAA: 0.148
AGGAGGC: 0.18
ACAGGGC: 0.425
CACAUUG: -0.0264
UCCGGUC: -0.284
AUUCUGU: -0.309
GCCACCC: -0.11
GGAGUAA: 0.166
AUACAUA: 0.0678
GAUCGUC: -0.394
CACGACC: -0.0808
CGUCUUA: -0.398

Series 3
Target: Histone acetyltransferase KAT6A, winged helix 1, GST fusion (KAT6A, Homo sapiens, UniProt Q92794, residues 1-85)
Method: protein binding microarray
Form: double-stranded DNA, one strand shown
Sample: in vitro
Concentration: not given
Setting: 8-mer, flanks averaged, mean of 2 arrays, mostly near background
Reference: not given
Direction: higher = stronger binding
Endpoint: E-score
Residues (chain): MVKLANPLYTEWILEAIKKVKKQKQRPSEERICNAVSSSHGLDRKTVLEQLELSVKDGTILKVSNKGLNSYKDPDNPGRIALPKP
CACCATAA: 0.00808
CGCCCGGC: 0.413
ACATGCAT: 0.00965
CCCGTTAG: 0.347
CCTTGGCA: -0.253
GCTCCGCC: 0.285
CTGTCACA: -0.143
ATTATTGG: -0.159
TGAGCGAA: 0.0444
GTCCGCAC: 0.179
ATGGCCCC: 0.074
CTCCGGTC: 0.13
CTAAGCCC: 0.0392
AGTAGAAC: -0.215
CGTAGTAA: -0.0375
AGTCAGTA: -0.0328
GGAACACC: -0.101
GCGTTCCA: 0.0995
CGAGGCAC: -0.0429
CACTTGGC: -0.0269

Series 4
Target: Centromere-binding protein 1, full length, N-terminal tag (CBF1, Saccharomyces cerevisiae, UniProt P17106, residues 1-351)
Chain of UniProt P17106 (whole entry, looked up): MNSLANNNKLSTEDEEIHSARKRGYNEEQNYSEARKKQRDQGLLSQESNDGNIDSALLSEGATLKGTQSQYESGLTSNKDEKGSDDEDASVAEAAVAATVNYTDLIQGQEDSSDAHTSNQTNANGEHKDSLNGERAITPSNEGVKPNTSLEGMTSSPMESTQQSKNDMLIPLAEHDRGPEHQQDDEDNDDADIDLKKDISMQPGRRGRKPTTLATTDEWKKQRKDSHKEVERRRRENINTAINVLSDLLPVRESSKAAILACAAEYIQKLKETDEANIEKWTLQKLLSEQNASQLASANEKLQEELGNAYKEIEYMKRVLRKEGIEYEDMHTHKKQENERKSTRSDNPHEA
Method: protein-binding microarray
Form: double-stranded DNA, one strand shown
Sample: in vitro
Concentration: 0.8 µM
Setting: whole 60-bp probe, no competitor
Direction: higher = stronger binding
Endpoint: fluorescence intensity
GAATACTATTTAAGCACGTGCATAAATTGGGTGTAGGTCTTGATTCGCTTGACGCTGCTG: 16800 a.u.
GAAAATATCACTCTACACGTTACCTTTTTAGTGTAGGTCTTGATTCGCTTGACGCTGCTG: 652 a.u.
GAATTGCTGTCTGCTGATGTCAATTAATTGTATTAGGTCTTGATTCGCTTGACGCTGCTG: 1010 a.u.
GAAGTGGTTTCATGTGACGTGGAGTCATGTAGGTAGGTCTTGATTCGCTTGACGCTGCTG: 2360 a.u.
GAACAGGAAATATTTCACGTGACTTACAAACAGTAGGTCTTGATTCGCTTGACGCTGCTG: 23100 a.u.
GAAGCTTTAAAAAATCACGCTCTGTGGTGCTAATAGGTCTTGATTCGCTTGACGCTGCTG: 689 a.u.
CTATCCTTAGTTAAGCACGTGCCGATGATATCATTCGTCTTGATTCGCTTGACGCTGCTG: 17200 a.u.
CTATTTTTTAGAAATCGCGTGGCTTGGTAACGCTTCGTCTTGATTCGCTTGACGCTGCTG: 592 a.u.
CCTAACTACTATAGTGGTGGGCAATAGCTTCGTACAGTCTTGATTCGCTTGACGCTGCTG: 487 a.u.
GAACATGTGAAAAATCATGTGTTATTTCGTTAATAGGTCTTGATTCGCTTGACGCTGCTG: 892 a.u.
CTAATACGAACGGATCACGATACATCCACATATTTCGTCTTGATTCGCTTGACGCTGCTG: 784 a.u.
CTACAAAGCACTAGTCATGAAAAACGCTTACATTTCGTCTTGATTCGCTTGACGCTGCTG: 524 a.u.
CCTAACTACTATAATCAGACTAAATAGCTTCGTACAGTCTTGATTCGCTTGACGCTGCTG: 561 a.u.
CTAGAGCACTACCATGACGTCATTAATGTAAAATTCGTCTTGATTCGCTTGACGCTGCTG: 504 a.u.
CTACAAAAGGCAGCGCACGCACTATTTCCCTTTTTCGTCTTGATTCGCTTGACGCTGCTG: 524 a.u.
GAACCATGGGTCTGTCTCCTGTTAAAGCATGTATAGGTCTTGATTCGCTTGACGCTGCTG: 537 a.u.
CTAGCAAAATAATGTCTCCTGAACTACATCGCCTTCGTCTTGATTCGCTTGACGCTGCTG: 559 a.u.
CTAAGACAACTTTACATCAGCCTTCATATTTTTTTCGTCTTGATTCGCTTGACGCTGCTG: 522 a.u.
CTATCTCCACTCTTTCTCCACGTGGCTTTGCTTTTCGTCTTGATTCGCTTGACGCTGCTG: 3080 a.u.
CTAATTCTGAGCCATCTCTCCTGATATATAAGATTCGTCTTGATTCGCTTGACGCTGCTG: 522 a.u.
CTAAAACGTGGGCATGACGTGGAAGCGATGATCTTCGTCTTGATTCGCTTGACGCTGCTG: 770 a.u.
CCTAACTACTATAGTCGCACGCCATAGCTTCGTACAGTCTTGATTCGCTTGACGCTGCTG: 512 a.u.
CTATTTTTTGTCCACCACCAAAATGTCAATTTTTTCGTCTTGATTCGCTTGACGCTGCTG: 576 a.u.
CTACTCTATAGGCATCACCATTGAAAAGTATGTTTCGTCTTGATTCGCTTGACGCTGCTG: 563 a.u.
GAAAGGCTCTACACCCACGAGCAATCGCCTTTTTAGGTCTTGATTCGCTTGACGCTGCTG: 502 a.u.

Some of these lines once more (series 4):
CTATCTCCACTCTTTCTCCACGTGGCTTTGCTTTTCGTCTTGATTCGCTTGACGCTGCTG: 3080 a.u.
CTAGAGCACTACCATGACGTCATTAATGTAAAATTCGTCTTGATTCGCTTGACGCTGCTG: 504 a.u.
GAACCATGGGTCTGTCTCCTGTTAAAGCATGTATAGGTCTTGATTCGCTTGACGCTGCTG: 537 a.u.
GAAAATATCACTCTACACGTTACCTTTTTAGTGTAGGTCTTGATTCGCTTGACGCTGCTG: 652 a.u.
CTAATACGAACGGATCACGATACATCCACATATTTCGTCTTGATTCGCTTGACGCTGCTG: 784 a.u.
